Measurements of several laboratories.
± gives the spread as reported.
Cell line: MV4-11

SMILES | test | conditions | how to read | quantity | value
C[C@@H]1CN(c2ccc(-c3cc(C(=O)NCCOCCOCCOCCOCCNC(=O)Cn4cc(-c5[nH]cc(C(=O)N[C@@H](CC(N)=O)c6ccc(F)c(Cl)c6)c5-c5ccc(Cl)cc5F)cn4)ccc3F)cc2NC(=O)c2c[nH]c(=O)cc2C(F)(F)F)C[C@H](C)N1C | cell growth or viability, ATP luminescence | 5 days |  | EC50 | 2490 nM
COc1ccc(C[C@H]2COC(=O)[C@@H]2Cc2ccc(OCC(=O)NCCCCC(=O)Nc3ccccc3N)c(OC)c2)cc1OC | cell growth or viability, CCK-8 | 48 h |  | IC50 | > 5000 nM
C[C@@H]1CN(c2ccc(-c3cc(C(=O)NCCOCCOCCOCCOCCOCCOCCNC(=O)/C=C/c4[nH]cc(C(=O)N[C@@H](CC(N)=O)c5ccc(F)c(Cl)c5)c4-c4ccc(Cl)cc4F)ccc3F)cc2NC(=O)c2ccc(F)cc2C(F)(F)F)C[C@H](C)N1C | cell growth or viability, ATP luminescence | 5 days |  | EC50 | 1460 nM
COc1ccc(C[C@H]2COC(=O)[C@@H]2Cc2ccc(OCC(=O)NCC(=O)Nc3ccccc3N)c(OC)c2)cc1OC | cell growth or viability, CCK-8 | 48 h |  | IC50 | > 5000 nM
Cc1ncsc1-c1ccc(CNC(=O)[C@@H]2C[C@H](O)CN2C(=O)[C@@H](NC(=O)C2(F)CC2)C(C)(C)C)c(OCCOc2ccc(CN3CCN(c4cc(-c5ccccc5O)nnc4N)CC3)cc2)c1 | cell growth or viability, ATP luminescence | 7 days |  | IC50 | 1400 nM
CCCCNNC(=O)c1ccc(CNC(=O)c2ccccc2)cc1 | cell growth or viability, resazurin | 48 h |  | EC50 | 38 to 287 nM
CCn1cc(-c2cc(Cn3ccnc3)cc3c2CCN([C@@H](C)c2cc(OC)ccn2)C3=O)c(C(F)(F)F)n1 | cell growth or viability, ATP luminescence | 5 days |  | GI50 | 9.7 nM
Nc1cc(F)ccc1NC(=O)c1ccc(CNC(=O)/C=C/c2cccnc2)cc1 | cell growth or viability, CCK-8 | 48 h |  | IC50 | 2000 nM
Nc1nc(F)nc2c1ncn2[C@@H]1O[C@H](CO)[C@@H](O)[C@@H]1O |  | 72 h, added: cytotoxic drug | below 1 means synergy | combination index | 0.58 ± 0.06
CCn1cc(-c2cc(Cn3ccnc3)cc3c2CCN([C@H](c2cc(C)ccn2)C2CC2)C3=O)c(C(F)(F)F)n1 | cell growth or viability, ATP luminescence | 5 days |  | GI50 | 13 nM
Nc1ccn([C@@H]2O[C@H](CO)[C@@H](O)[C@@H]2O)c(=O)n1 |  | 72 h, added: cytotoxic drug | below 1 means synergy | combination index | 0.81 ± 0.04
COc1ccc(C[C@H]2COC(=O)[C@@H]2Cc2ccc(OCc3cn(CC(=O)Nc4ccccc4N)nn3)c(OC)c2)cc1OC | cell growth or viability, CCK-8 | 48 h |  | IC50 | > 5000 nM
Cc1ccc(NC(=O)c2ccc3c(c2)CC[C@@H]3N2CCN(C)CC2)cc1C#Cc1cnc2ccc(Cl)nn12 | cell growth | 72 h |  | IC50 | > 200 nM
COc1ccc(C[C@H]2COC(=O)[C@@H]2Cc2ccc(OCC(=O)N3CCC(C(=O)NO)CC3)c(OC)c2)cc1OC | cell growth or viability, CCK-8 | 48 h |  | IC50 | > 5000 nM
CCc1cc(C(=O)NC)c2nccc(N3CCc4c(cc(Cn5ccnc5)cc4-c4cn(C)nc4C(F)(F)F)C3=O)c2c1 | cell growth or viability, ATP luminescence | 5 days |  | GI50 | < 10 nM
COc1cccc2c1C(=O)c1c(O)c3c(c(O)c1C2=O)C[C@@](O)(C(C)=O)C[C@@H]3O[C@H]1C[C@H](N)[C@H](O)[C@H](C)O1 |  | 72 h, added: cytotoxic drug | below 1 means synergy | combination index | 0.87 ± 0.06
COc1ccc2nccc(N3CCc4c(cc(Cn5ccnc5)cc4-c4cn(C)nc4C(F)(F)F)C3=O)c2c1 | cell growth or viability, ATP luminescence | 5 days |  | GI50 | 45 nM
CCN(c1cc(-c2ccc(CN3CCN(CCC(=O)NCCCCCCCCCCC(=O)N[C@H](C(=O)N4C[C@H](O)C[C@H]4C(=O)NCc4ccc(-c5scnc5C)cc4)C(C)(C)C)CC3)cc2)cc(C(=O)NCc2c(C)cc(C)[nH]c2=O)c1C)C1CCOCC1 | cell growth, CCK-8 | 5 days |  | IC50 | 190 nM

A few entries again:
SMILES | test | conditions | how to read | quantity | value
CCc1cc(C(=O)NC)c2nccc(N3CCc4c(cc(Cn5ccnc5)cc4-c4cn(C)nc4C(F)(F)F)C3=O)c2c1 | cell growth or viability, ATP luminescence | 5 days |  | GI50 | < 10 nM
COc1cccc2c1C(=O)c1c(O)c3c(c(O)c1C2=O)C[C@@](O)(C(C)=O)C[C@@H]3O[C@H]1C[C@H](N)[C@H](O)[C@H](C)O1 |  | 72 h, added: cytotoxic drug | below 1 means synergy | combination index | 0.87 ± 0.06
COc1ccc2nccc(N3CCc4c(cc(Cn5ccnc5)cc4-c4cn(C)nc4C(F)(F)F)C3=O)c2c1 | cell growth or viability, ATP luminescence | 5 days |  | GI50 | 45 nM
